Published values pooled from the literature.
Lines come from different studies, so protocols differ. Numbers after ± are the reported error.
Spike glycoprotein: Spike glycoprotein (Severe acute respiratory syndrome coronavirus 2, UniProt P0DTC2)
rep main protease: Replicase polyprotein 1ab, main protease (rep, Severe acute respiratory syndrome coronavirus 2, UniProt P0DTD1)

SMILES	tested on	assay	system	conditions	how to read	measurement	value
CNC(=O)[C@@H](NC(=O)[C@H](CC(C)C)[C@H](O)C(=O)NO)C(C)(C)C	Daboia russelii venom proteases (SVMP)	protease activity, inhibitor	KA population	0.1 µM, added: azocasein substrate	relative to: venom alone	remaining activity	90%
COc1cc2c3cc1Oc1c(OC)c(OC)cc4c1[C@@H](Cc1ccc(O)c(c1)Oc1ccc(cc1)C[C@@H]3N(C)CC2)N(C)CC4	Spike glycoprotein	binding, BLI				koff	0.01 s⁻¹
Nc1ncnc2c1ncn2[C@@H]1O[C@H](COP(=O)(O)OP(=O)(O)OP(=O)(O)O)[C@@H](O)[C@H]1O	Genome polyprotein, 3D RNA polymerase (Human poliovirus 1 Mahoney, UniProt P03300)	substrate				kpol	10 ± 1 s⁻¹
Cc1conc1C(=O)N1Cc2ccccc2C[C@H]1CNC(=O)c1cccc2[nH]ncc12	rep main protease	enzyme activity, inhibitor		5 µM, mean of runs		inhibition	10.3%
C[C@@H]1O[C@@H](O[C@H]2[C@H](O[C@H]3CC[C@@]4(C)[C@@H](CC[C@]5(C)[C@@H]4CC=C4[C@@H]6CC(C)(C)CC[C@]6(C(=O)O[C@@H]6O[C@H](CO[C@@H]7O[C@H](CO)[C@@H](O[C@@H]8O[C@@H](C)[C@H](O)[C@@H](O)[C@H]8O)[C@H](O)[C@H]7O)[C@@H](O)[C@H](O)[C@H]6O)CC[C@]45C)[C@]3(C)CO)OC[C@H](O)[C@@H]2O)[C@H](O)[C@H](O)[C@H]1O	Spike glycoprotein	binding, biolayer interferometry				koff	0.0132 s⁻¹
O=C(NC[C@H](NC(=O)c1cncc2c1CCNC2=O)c1ccc2ccccc2c1)c1ccon1	rep main protease	enzyme activity, inhibitor		5 µM, mean of runs		inhibition	11%
Cn1cnc(Cn2c(=O)[nH]/c(=N\c3cc4cn(C)nc4cc3Cl)n(Cc3cc(F)c(F)cc3F)c2=O)n1			human, mild renal impairment	oral, 375 mg, treatment-related dry mouth, Mild severity		patients with adverse event	12.5%
COc1ccc(-c2cc(=O)c3c(OC)cc(OC)c(OC)c3o2)cc1OC	rep main protease	reporter gene (Gaussia luciferase), inhibitor		20 µM		inhibition	1.02%
Nc1ncnc2c([C@@H]3N[C@H](CO)[C@@H](O)[C@H]3O)c[nH]c12	Severe acute respiratory syndrome coronavirus	viral replication, inhibitor	Vero 76	94.7 µM		inhibition	93.4%
Cc1cncc(CC(=O)N2CCC[C@H]([C@H]3CCN(C(=O)c4cnc5cc(C)ccc5c4)C3)C2)c1	rep main protease	enzyme activity, inhibitor		5 µM, run 2		inhibition	10.5%
N#Cc1ncccn1	rep main protease	reporter gene (Gaussia luciferase), inhibitor		20 µM		inhibition	-0.299%
CC(Nc1nc(N2CCN(CCN)CC2)nc2ccccc12)c1ccccc1 (stereo not shown)	SARS-CoV-2	cytopathic effect, cell-based CPE	USA_WA1/2020	round 2, 5-point dilution		efficacy	52.2%
[H]/N=C(/N)c1ccc(NCc2nc3cc(C(=O)N(CCC(=O)O)c4ccccn4)ccc3n2C)cc1	rep main protease	reporter gene (Gaussia luciferase), inhibitor		20 µM		inhibition	0.255%
CC[C@H](C)[C@H](NC(=O)[C@H](CC(C)C)NC(=O)[C@H](Cc1c[nH]c2ccccc12)NC(=O)[C@H](CCC(N)=O)NC(=O)[C@@H](NC(=O)[C@H](Cc1ccccc1)NC(=O)[C@H](C)NC(=O)[C@H](CCCCNC(=O)COCCOCCNC(=O)COCCOCCNC(=O)CC[C@H](NC(=O)CCCCCCCCCCCCCCCCCCC(=O)O)C(=O)O)NC(=O)[C@H](CCC(N)=O)NC(=O)[C@H](C)NC(=O)[C@@H](NC(=O)[C@H](CCCCN)NC(=O)[C@H](CC(=O)O)NC(=O)[C@H](CC(C)C)NC(=O)C(C)(C)NC(=O)[C@@H](NC(=O)[C@H](CO)NC(=O)[C@H](Cc1ccc(O)cc1)NC(=O)[C@H](CC(=O)O)NC(=O)[C@H](CO)NC(=O)[C@@H](NC(=O)[C@H](Cc1ccccc1)NC(=O)[C@@H](NC(=O)CNC(=O)[C@H](CCC(=O)O)NC(=O)C(C)(C)NC(=O)[C@@H](N)Cc1ccc(O)cc1)[C@@H](C)O)[C@@H](C)O)[C@@H](C)CC)[C@@H](C)CC)C(C)C)C(=O)N[C@@H](C)C(=O)NCC(=O)NCC(=O)N1CCC[C@H]1C(=O)N[C@@H](CO)C(=O)N[C@@H](CO)C(=O)NCC(=O)N[C@@H](C)C(=O)N1CCC[C@H]1C(=O)N1CCC[C@H]1C(=O)N1CCC[C@H]1C(=O)N[C@@H](CO)C(N)=O			healthy subjects	all MAD doses		subjects with catheter site bruise	14.3%
O=C(NC[C@H](NC(=O)c1cncc2ccccc12)c1ccc2ccccc2c1)c1cccnc1	rep main protease	enzyme activity, inhibitor		5 µM, mean of runs		inhibition	12.4%
Cc1ccccc1CN1C(=O)c2ccccc2Sc2ccc(C(=O)NCCCN3CCOCC3)cc21	SARS-CoV-2	cytopathic effect, cell-based CPE	USA_WA1/2020	round 1, 5-point dilution		AC50	11.2 µM
O=c1cc(CO)occ1O	rep main protease	reporter gene (mKate2), inhibitor		20 µM		inhibition	-0.934%
CC[C@H](C)[C@H](NC(=O)[C@@H]1CCCN1C(=O)[C@H](C)NC(=O)[C@@H]1CSSC[C@@H]2NC(=O)[C@H](CC(=O)O)NC(=O)[C@H](CCCNC(=N)N)NC(=O)[C@H](CCC(=O)O)NC(=O)[C@H](CCCNC(=N)N)NC(=O)CNC(=O)[C@H](CC(=O)O)NC(=O)[C@@H]3CSSC[C@H](NC(=O)[C@H](CCC(=O)O)NC(=O)[C@H](CC(C)C)NC(=O)CNC(=O)[C@H](C)NC(=O)[C@H](CSSC[C@H](NC(=O)[C@H](Cc4ccccc4)NC(=O)[C@@H](N)CO)C(=O)N[C@@H](CC(C)C)C(=O)N[C@@H](C(C)C)C(=O)N[C@@H](CCCCN)C(=O)N[C@@H](Cc4c[nH]c5ccccc45)C(=O)N[C@@H](CCCCN)C(=O)N[C@@H](CCC(N)=O)C(=O)N3)NC2=O)C(=O)N[C@@H](Cc2c[nH]c3ccccc23)C(=O)N[C@@H](CCCCN)C(=O)N[C@@H](CCCNC(=N)N)C(=O)N[C@@H](CO)C(=O)N[C@@H](CCCNC(=N)N)C(=O)N[C@@H](CC(N)=O)C(=O)N[C@@H](CCCCN)C(=O)N[C@@H](CO)C(=O)N[C@@H](CO)C(=O)N[C@@H](C(C)C)C(=O)N1)C(=O)N[C@H](C(=O)O)[C@@H](C)O	ASIC1 (Homo sapiens, UniProt P78348)	ion current, outside-out patch clamp	HEK-293T	100 nM	relative to: same patch before toxin	rise time slowing	15 ± 2 fold
Nc1cc(OCCNCc2ccc(S(=O)(=O)F)cc2)ccn1	cya (Bacillus anthracis, UniProt P40136)					kinact	0.000483 s⁻¹

A few entries again:
SMILES	tested on	assay	system	conditions	how to read	measurement	value
Cc1cncc(CC(=O)N2CCC[C@H]([C@H]3CCN(C(=O)c4cnc5cc(C)ccc5c4)C3)C2)c1	rep main protease	enzyme activity, inhibitor		5 µM, run 2		inhibition	10.5%
O=C(NC[C@H](NC(=O)c1cncc2ccccc12)c1ccc2ccccc2c1)c1cccnc1	rep main protease	enzyme activity, inhibitor		5 µM, mean of runs		inhibition	12.4%
